Assay results gathered from unrelated publications.
Compare with care: the assays were run in different laboratories. “And” joins repeats or separate records; there may be more than shown. Numbers after ± are the reported error.

| SMILES | cell line | assay | system | setting | IC50 |
| --- | --- | --- | --- | --- | --- |
| Cc1c2ccncc2c(C)c2c1[nH]c1ccccc12 | ARPE-19 | cytotoxicity, CCK-8 | – | 48 h | 1.12 ± 0.158 µM |
| CC(=O)N[C@H](C(=O)N[C@@H](CCCNC(=N)N)C(=O)N[C@@H](CCCCN)C(=O)N[C@@H](CCCNC(=N)N)C(=O)N[C@H](C(=O)N[C@@H](CC(C)C)C(=O)N[C@@H](CCCNC(=N)N)C(=O)N[C@@]1(C)CCCC=CCCC[C@@](C)(C(=O)N[C@@H](CCCNC(=N)N)C(=O)N[C@@H](CCC(=O)O)C(=O)N[C@@H](CC(C)C)C(=O)N[C@H](C(=O)N[C@@H](CCC(=O)O)C(N)=O)C(C)C)NC(=O)[C@H](CCC(N)=O)NC(=O)[C@H](CC(C)C)NC(=O)[C@H](CC(C)C)NC1=O)[C@@H](C)O)C(C)C | A-431 | cell viability | – | 18 h, serum-free | 13 µM |
| CC(C)C12OC1C1OC13C1(C)CCC4=C(COC4=O)C1CC1OC13C2OC(=O)CCC(=O)OC1OC(CO)C(O)C(O)C1O (centres unmarked) | RPMI-7951 | cell growth or viability, XTT | – | 47 h | 2.67 µM |
| Cc1cc(Nc2nc(C[C@@]3(C(=O)O)CCN(Cc4cccc(Cl)c4F)[C@H](C)C3)cc(C)c2F)[nH]n1 | CoC1 | cell growth or viability, ATP luminescence | – | 5 days | 0.061 µM |
| CCOc1ccccc1-n1c(CN2CCNCC2)nc2ccccc2c1=O | PANC-08-13 | cell growth or viability | – | 72 h | 0.0607 µM |
| CCC1=C(C)C2=C(c3ccc(C(=O)NCCNC(=O)c4ccc(P(=NC5=[O+][Ru-]([Cl])[n+]6ccccc65)(c5ccccc5)c5ccccc5)cc4)cc3)c3c(C)c(CC)c(C)n3[B-](F)(F)[N+]2=C1C.Cc1ccc(C(C)C)cc1.Cl | IMR-90 | cell growth or viability, MTT | – | – | 180 µM |
| CC[C@H](C)[C@H](NC(=O)[C@H](CCCCN)NC(=O)[C@@H](NC(=O)[C@H](CCC(N)=O)NC(=O)[C@@H](N)CCCNC(=N)N)[C@@H](C)CC)C(=O)N[C@@H](Cc1c[nH]c2ccccc12)C(=O)N[C@@H](Cc1ccccc1)C(=O)N[C@@H](CCC(N)=O)C(=O)N[C@@H](CC(N)=O)C(=O)N[C@@H](CCCNC(=N)N)C(=O)N[C@@H](CCCNC(=N)N)C(=O)N[C@@H](CCSC)C(=O)N[C@@H](CCCCN)C(=O)N[C@@H](Cc1c[nH]c2ccccc12)C(=O)N[C@@H](CCCCN)C(=O)N[C@@H](CCCCN)C(=O)N[C@@H](CC(C)C)C(=O)N[C@@H](CCC(=O)O)C(=O)N[C@H](C(=O)N[C@@H](C)C(=O)N[C@H](C(=O)N[C@@H](CC(N)=O)C(=O)N[C@@H](CC(C)C)C(=O)N[C@@H](C)C(=O)N[C@@H](Cc1c[nH]c2ccccc12)C(=O)O)C(C)C)[C@@H](C)O | MEC1 | cell growth or viability, flow cytometry | – | 90 min | 3.5 µM |
| CC(=O)[O][Pt]([NH2])([NH2])([Cl])([Cl])[O]C(=O)C(Cl)Cl | 2008 ovarian adenocarcinoma | cytotoxicity, MTT | – | 72 h | 0.86 ± 0.2 µM |
| CC(=O)N[C@H](C(=O)N[C@@H](CCCNC(=N)N)C(=O)N[C@@H](CCCCN)C(=O)N[C@@H](CCCNC(=N)N)C(=O)N[C@H](C(=O)N[C@@H](CC(C)C)C(=O)N[C@@H](CCCNC(=N)N)C(=O)N[C@]1(C)CCCCCCC=CCCC[C@@](C)(C(=O)N[C@H](C(=O)N[C@@H](CCC(=O)O)C(N)=O)C(C)C)NC(=O)[C@H](CCC(=O)O)NC(=O)[C@H](CCCNC(=N)N)NC(=O)[C@H](CCC(=O)O)NC(=O)[C@H](CCC(N)=O)NC(=O)[C@H](CC(C)C)NC(=O)[C@H](CC(C)C)NC1=O)[C@@H](C)O)C(C)C | A-431 (wild-type EGFR) | cell viability | – | 18 h | > 100 µM |
| O=C(c1cc(Cc2n[nH]c(=O)c3ccccc23)ccc1F)N1CC(CNC2CC2)C1 | CAPAN-1 | – | – | – | 0.13 µM |
| COC(=O)[C@@H](NC(=O)[C@@H](NC(=O)[C@@H](NC(=O)[C@@H]1CCCN1C(=O)[C@H](C)NC(=O)OC(C)(C)C)C(C)C)C(C)C)C(C)C | HEK293 | cell growth or viability, SRB | – | – | 506 µM and 287 µM and 442 µM |
| O=c1n(CCNCCOS(=O)(=O)c2ccccc2)c(=O)n(S(=O)(=O)c2ccccc2)c(=O)n1S(=O)(=O)c1ccccc1 | A549 | cell growth or viability, MTT | – | 24 h | 21.5 µg/mL |
| CC(C)C12OC1C1OC13C1(C)CCC4=C(COC4=O)C1CC1OC13C2OC(=O)CCCOC1OC(CO)C(O)C(O)C1O (centres unmarked) | PC-3 | cell growth or viability, XTT | – | 47 h | 0.61 µM |
| O=C1C=CC(=O)c2c(O)cccc21 | MOLT-3 | cell growth or viability, XTT | – | – | 7.93 µM |
| O[C@]12C=C(c3nccc4c3[nH]c3ccccc34)[C@@H]3CCN(CCCC/C=C\CC1)C[C@@]31C[C@@H]3/C=C\CCCCN3[C@H]12 | LLC-PK11 | cell growth or viability, neutral red | – | 48 h | 2.15 µg/mL |
| CCCCCCCC(=O)NCCCC[C@H](NC(=O)CCCCCCC)C(=O)N[C@@H](CCCCNC(=O)CCCCCCC)C(=O)NCC(=O)NCC(=O)NCC(=O)N[C@@H](CS)C(=O)N[C@@H](CCCNC(=N)N)C(=O)N[C@@H](CCCCN)C(=O)N1CCC[C@H]1C(=O)N[C@@H](CS)C(=O)N[C@@H](CCCNC(=N)N)C(=O)N[C@@H](CCCCN)C(=O)N1CCC[C@H]1C(N)=O | HEK293 | cell growth or viability, MTT | – | 24 h | 108 µM |
| CC[C@H](C)[C@@H]([C@@H](CC(=O)N1CCC[C@H]1[C@H](OC)[C@@H](C)C(=O)N[C@H](C)[C@@H](O)c1ccccc1)OC)N(C)C(=O)[C@@H](NC(=O)[C@H](C(C)C)N(C)C(=O)OCc1ccc(NC(=O)[C@H](CCCNC(N)=O)NC(=O)[C@@H](NC(=O)CCCc2cn(CC(=O)NCCCC[C@H]3NC(=O)[C@H](CCCCN)NC(=O)[C@H](CCCNC(N)=O)NC(=O)[C@H](Cc4ccc(O)cc4)NC(=O)[C@@H](NC(=O)[C@H](Cc4ccc5ccccc5c4)NC(=O)[C@H](CCCNC(=N)N)NC(=O)[C@@H](N)CCCNC(=N)N)CSSC[C@@H](C(=O)N[C@@H](CCCNC(=N)N)C(N)=O)NC(=O)[C@H](CCCNC(N)=O)NC(=O)[C@H](CCCNC(=N)N)NC(=O)[C@H](Cc4ccc(O)cc4)NC(=O)[C@@H]4CCCN4C3=O)nn2)C(C)C)cc1)C(C)C | Daudi | cell growth or viability, CCK-8 | – | – | 0.583 µM |
| Cc1ccc2c(Br)cc(Br)c([O-])c2n1.Cc1ccc2c(Br)cc(Br)c([O-])c2n1.[Co+2].c1cnc2c(c1)c1nccnc1c1cccnc12 | HL-7702 normal hepatocytes | cell viability, MTT | – | 48 h | 62.1 ± 1.09 µM |
| Cc1cc(Oc2nc(N3CC[C@@H](c4ccncc4)C3)ncc2F)[nH]n1 | L-363 | cell proliferation | blood cancer | – | 20.9 µM |
| CC[C@H](C)[C@H](NC(=O)[C@H](C)NC(=O)[C@@H](N)Cc1c[nH]cn1)C(=O)N[C@@H](Cc1ccc(O)cc1)C(=O)N1CCC[C@H]1C(=O)N[C@@H](CCCNC(=N)N)C(=O)N[C@@H](Cc1c[nH]cn1)C(=O)N[C@@H](CC(C)C)C(=O)N[C@@H](CCC(=O)O)C(=O)N[C@H](C(=O)N[C@@H](C)C(=O)N[C@H](C(=O)N[C@@H](CC(N)=O)C(=O)N[C@@H](CC(C)C)C(=O)N[C@@H](C)C(=O)N[C@@H](Cc1c[nH]c2ccccc12)C(=O)O)C(C)C)[C@@H](C)O | MEC1 | cell growth or viability, flow cytometry | – | 90 min | > 14.3 µM |

For quick reference, copied from above:
| SMILES | cell line | assay | system | setting | IC50 |
| --- | --- | --- | --- | --- | --- |
| CC[C@H](C)[C@H](NC(=O)[C@H](C)NC(=O)[C@@H](N)Cc1c[nH]cn1)C(=O)N[C@@H](Cc1ccc(O)cc1)C(=O)N1CCC[C@H]1C(=O)N[C@@H](CCCNC(=N)N)C(=O)N[C@@H](Cc1c[nH]cn1)C(=O)N[C@@H](CC(C)C)C(=O)N[C@@H](CCC(=O)O)C(=O)N[C@H](C(=O)N[C@@H](C)C(=O)N[C@H](C(=O)N[C@@H](CC(N)=O)C(=O)N[C@@H](CC(C)C)C(=O)N[C@@H](C)C(=O)N[C@@H](Cc1c[nH]c2ccccc12)C(=O)O)C(C)C)[C@@H](C)O | MEC1 | cell growth or viability, flow cytometry | – | 90 min | > 14.3 µM |
| O=C(c1cc(Cc2n[nH]c(=O)c3ccccc23)ccc1F)N1CC(CNC2CC2)C1 | CAPAN-1 | – | – | – | 0.13 µM |
| CC(C)C12OC1C1OC13C1(C)CCC4=C(COC4=O)C1CC1OC13C2OC(=O)CCCOC1OC(CO)C(O)C(O)C1O (centres unmarked) | PC-3 | cell growth or viability, XTT | – | 47 h | 0.61 µM |
